Experimental data pooled from the literature.
Compare with care: the assays were run in different laboratories. Values joined by “and” are separate records of one study, mostly repeats; a detail may differ. ± gives the spread as reported.

| SMILES | test | test system | setting | how to read | quantity | value |
| --- | --- | --- | --- | --- | --- | --- |
| CN1C(=O)[C@@H](NC(=O)c2nnc(Cc3ccccc3)[nH]2)COc2cccnc21 | phase I multiple ascending dose | human, male and female | oral, 100 mg, 14 days | – | medical device site reaction incidence | 12.5% |
| C[C@@H](c1ccc2nccn2c1)n1nnc2ncc(-c3cnn(C)c3)nc21 | refers to: white blood cell count decreased | EGFR-mutant MET-altered NSCLC patients | oral, dose not given, AE grade ≥3, all | – | incidence of treatment-related AEs | 3% |
| COc1cccc(OC)c1-c1cc(C(=O)NC2(C(=O)O)C3CC4CC(C3)CC2C4)nn1-c1ccc(C(=O)N(C)CCCN(C)CCCN(C)C(=O)CN2CCN(CC(=O)[O-])CCN(CC(=O)[O-])CCN(CC(=O)[O-])CC2)cc1C(C)C.[177Lu+3] (stereo not drawn) | – | mouse, HT-29 xenograft | 72 h post injection, biodistribution | relative to: tumour over muscle uptake | tumour-to-muscle ratio | 76.4 |
| CCN1CCN(Cc2ccc(NC(=O)c3ccc(C)c(NC(=O)c4cncc(-c5cccs5)c4)c3)cc2C(F)(F)F)CC1 | – | C57BL/6 mice, epithelial lining fluid | intraperitoneal, 30 mg/kg | – | extrapolated AUC share | 8.4% |
| COc1c(C)c2c(c(O[C@@H]3O[C@H](C(=O)O)[C@@H](O)[C@H](O)[C@H]3O)c1C/C=C(\C)CCC(=O)O)C(=O)OC2 | – | healthy humans | oral, dose not given, together with: isavuconazole co-administration | relative to: with isavuconazole over MMF alone | AUC0–∞ geometric mean ratio | 76% |
| CC(C)n1c(Nc2cccnc2)nc2cnc(Nc3ccc(N4CCN(C)CC4)cc3)nc21 | refers to: investigations (SOC) | healthy male subjects | oral, 150 mg, study, together with: rifampin | – | subjects with adverse event | 50% |
| Cc1ccc(O)c(-n2nc3ccccc3n2)c1 | – | human aged 6-11 years | concentration not given, spray sunscreen, mean | – | daily dermal exposure dose | 923 ng/kg/day |
| COc1ccc2nc(COc3ccc(CC4SC(=O)NC4=O)cc3)n(C)c2c1 (stereo not drawn) | – | aqueous buffer | pH 7.4 | – | thermodynamic solubility | > 2290 µg/mL |
| COc1cc2c3c(n(CCCN4CCOCC4)c(=O)c2cc1OC)-c1cc2c(cc1C3=O)OCO2 | – | beagle dog, female, plasma | oral, 860 mg/m^2, gelatin capsule | – | Vz/F | 1690 L/m² and 32500 L/m² |
| CCCCc1ccc(-c2ccc(C#N)cc2)cc1 | – | Sprague-Dawley rat, female, placenta | 5000 ng/mL in perfusate, 50 (unit not given), high dose, mixture of 21 LCMs | – | median placental accumulation | 336 ng/g |
| COc1ccc2c(c1)CN(C(=O)CCN1CCC(Cc3ccccc3)CC1)CC[S@@+]2[O-] | – | dog plasma | 1000 ng/mL | – | fu | 0.292 |
| Cc1ccc([C@@H]2O[C@H](CO)[C@@H](O)[C@H](O)[C@H]2O)cc1Cc1ccc(-c2ccc(F)cc2)s1 | – | Japanese type 2 diabetes patients | 100 mg, day 1, 24 h urine collection | relative to: baseline | urinary sodium excretion change | 54.1 mEq |
| OC[C@H]1O[C@@H](c2ccc(F)c(Cc3cc4ccccc4s3)c2)[C@H](O)[C@@H](O)[C@@H]1O | – | Japanese patients, type 1 diabetes | oral, 25 mg/day, onset day 5 | relative to: patients | hypoglycaemia-related adverse event | 2% |
| [18F]c1ccc(-c2ccc3c(c2)[nH]c2ccncc23)cn1 | ex vivo biodistribution | B6SJL mouse, normal, liver | intravenous, 30 min | – | SUV | 4.04 ± 1.8 |
| O=C(O)CCC(=O)O.[2H]C([2H])([2H])Oc1cc(C)c2[nH]ccc2c1CN1CC[C@@H](C2CC2)C[C@H]1c1ccc(C(=O)O)cc1 | multiple ascending dose | healthy Chinese subjects | 100 mg twice daily | – | subjects with hyponatraemia | 0% |
| CNCc1ccc(-c2[nH]c3cc(F)cc4c3c2CCNC4=O)cc1 | – | human patients | oral, 360 mg twice daily, all grades | – | nausea incidence | 75% |
| Cc1cc(NC2CCN(C(=O)OC3CCN(C(=O)/C=C/CN(C)C)C3)CC2)n2ncc(C(C)C)c2n1 (stereo not drawn) | Phase I dose escalation CTCAE v4.0, refers to: platelet count decreased | patients with advanced solid tumours | dose not given, QD dosing any grade | – | patients with adverse event | 21% |
| CNC(=O)c1ccc(-c2cnc3ncc(Cc4ccc5ncccc5c4)n3n2)cc1F | – | HCC patients | oral, 600 mg twice daily, all grades RP2D expansion | – | back pain incidence | 9% |
| Cn1cc(-c2cn3nccc3c(-c3cnn([C@]4(CC#N)C[C@@H](C#N)C4)c3)n2)cn1 | – | healthy human, plasma | 400 mg once daily, day 10, multiple dose, fed, geometric mean | – | MRT | 9.6 h |
| Cc1ccc(C(=O)N(CCCN)C(c2nc3snc(C)c3c(=O)n2Cc2ccccc2)C(C)C)cc1 (stereo not drawn) | refers to: Pneumonia | human patients | intravenous, 16 mg/day, CTCAE grade ≥3 | – | patients with adverse events | 0% |
| Cc1ccc(Sc2ccccc2N2CCNCC2)c(C)c1 | refers to: feeling abnormal | healthy adult men | oral, 10 mg daily, 12 days | – | participants with TEAE | 0% |

Some of these lines once more:
| SMILES | test | test system | setting | how to read | quantity | value |
| --- | --- | --- | --- | --- | --- | --- |
| COc1cc2c3c(n(CCCN4CCOCC4)c(=O)c2cc1OC)-c1cc2c(cc1C3=O)OCO2 | – | beagle dog, female, plasma | oral, 860 mg/m^2, gelatin capsule | – | Vz/F | 1690 L/m² and 32500 L/m² |
| Cc1ccc([C@@H]2O[C@H](CO)[C@@H](O)[C@H](O)[C@H]2O)cc1Cc1ccc(-c2ccc(F)cc2)s1 | – | Japanese type 2 diabetes patients | 100 mg, day 1, 24 h urine collection | relative to: baseline | urinary sodium excretion change | 54.1 mEq |
